Measurements of several laboratories.
Lines come from different studies, so protocols differ. “And” joins repeats or separate records; there may be more than shown. Numbers after ± are the reported error. ≈ marks a conversion by molar mass, not a printed value.

| Structure (SMILES) | tested on | assay | test system | conditions | how to read | endpoint | value |
| --- | --- | --- | --- | --- | --- | --- | --- |
| NC(CP(=O)(O)O)C(=O)O (racemic) |  | binding, MIDAS equilibrium dialysis LC-MS | A2AR-BRIL thermostabilized | concentration not given | relative to: no-protein control | log2 fold change | -0.0104 |
| Cc1cn(-c2cc(NC(=O)c3ccc(C)c(Nc4nccc(-c5cccnc5)n4)c3)cc(C(F)(F)F)c2)cn1 |  |  | human patients | dose not given, 12 months vs baseline, within treated group | relative to: baseline, direction not given | ADAS-Cog score change | 6.83 |
| CCCCC1(CCCC)CN(c2ccccc2)c2cc(SC)c(OCC(=O)N[C@@H](C(=O)NCC(=O)O)c3ccccc3)cc2S(=O)(=O)C1 |  | refers to: HDL cholesterol | human, serum | 10 mg once daily, day 11 |  | serum HDL-C | 47.1 mg/dL |
| C=CCNc1c(O)cc2c(O)c1C[C@@H](C)C[C@H](OC)[C@H](O)[C@@H](C)/C=C(\C)[C@H](OC(N)=O)[C@@H](OC)/C=C\C=C(/C)C(=O)N2 |  |  | GIST patients | dose not given |  | median time to tumour progression | 12 weeks |
| C[C@@H](NC(=O)c1ccc(C#Cc2cccc(F)c2)cn1)C(C)(C)O |  |  | rat hippocampal CA3 slices | 10 µM, 10 min, spontaneous epileptiform activity | relative to: baseline | population spike inter-event interval | 51.7 ± 7.8% |
| Cc1nc(Nc2ccc(CC(=O)O)cc2)nc(Nc2ccc(F)c(C(F)(F)F)c2)c1C |  |  | C57BL/6J mice, high-fat diet, liver | intraperitoneal, 0.3 mg/kg daily, 60% fat diet 12 weeks, dosed last four | relative to: vehicle | triglyceride content | decreased |
| COc1cc(N2CC[C@@]3(O)C(=O)c4cc(C)c(C)cc4N=C23)ccn1 |  | methamphetamine place preference | mouse | intraperitoneal |  | lowest effective dose | 0.5 mg/kg |
| C[C@]1(CO)Cc2ncn(-c3ccc(C#N)c(Cl)c3)c2C(=O)O1 |  |  | human | 10 mg single dose |  | urinary sodium excretion Ae(0-24h) | 254 mmol |
| C[C@]12CC[C@H](O)C[C@H]1CC[C@@H]1[C@@H]2CC[C@]2(C)[C@@H](c3ccc(=O)oc3)CC[C@]12O |  |  | female nude mouse LCC2 xenograft | 0.5 mg/kg, day 11, tamoxifen-resistant |  | tumour volume | 59.3 mm3 and 54.1 mm3 and 63.2 mm3 and 73.2 mm3 and 67.6 mm3 and 67.4 mm3 |
| Cn1cc(Nc2nccc(-c3ccc4c(c3)CN(C3COC3)CC[C@H]4NC(=O)c3cn(C(C)(C)C)nn3)n2)cn1 |  | refers to: Death Receptor Signaling | splenic B cells, Mus musculus | 30 mg/kg, added: IgD activation | relative to: vehicle, direction not given | pathway activation z-score | 2.5 |
| Clc1cc2c(cc1Cl)Oc1cc(Cl)c(Cl)cc1O2 |  | RNA-Seq, refers to: Ptger4 | Sprague-Dawley rat, female, liver | 10 µg/kg | relative to: vehicle | mRNA fold change | 1.7 fold |
| NCCc1ccccc1 |  | binding, MIDAS equilibrium dialysis LC-MS | A2AR-BRIL thermostabilized | concentration not given | relative to: no-protein control | log2 fold change | 0.4 |
| CC[C@H](C)[C@@H]1NC(=O)[C@@H]2CCCN2C(=O)[C@H](CC(C)C)NC(=O)[C@H](CC(C)C)NC(=O)CNC(=O)[C@@H](NC(=O)[C@@H](NC(=O)[C@H](CC(=O)O)NC(=O)CNC(=O)[C@@H](NC(=O)[C@H](C)NC(=O)CNC(=O)[C@H](CCCCN)NC(=O)[C@H](CC(C)C)NC(=O)[C@H](CC(C)C)NC(=O)[C@H](CCCCN)NC(=O)CNC(=O)[C@@H](NC(=O)[C@@H](N)CC(C)C)C(C)C)C(C)C)C(C)C)CSSC[C@@H](C(=O)O)NC1=O |  | RNA-seq, refers to: Fgr mRNA | mouse traumatic brain injury, frontal cortex and hippocampus | dose not given | relative to: TBI plus compound vs TBI | log2 fold change | -2.74 |
| C[C@]12CC[C@@H](O)C[C@@H]1CC[C@@H]1[C@@H]2CC[C@]2(C)[C@@H]([N+](=O)[O-])CC[C@@H]12 |  | elevated zero maze | male NIH Swiss mice | i.p., 10 mg/kg | relative to: vehicle | time in open areas | increased |
| C[C@H]1O[C@@H](O[C@H]2CC[C@@]3(C)[C@@H](CC[C@]4(C)[C@@H]3C=C[C@]35OC[C@@]6(CCC(C)(C)C[C@H]63)[C@@H](O)C[C@]54C)[C@]2(C)CO)[C@H](O)[C@@H](O[C@@H]2O[C@H](CO)[C@@H](O)[C@H](O)[C@H]2O)[C@H]1O |  | refers to: CPT-1α | ethanol-fed mice, hepatic SIRT1 knockdown (AAV8-TBG-SIRT1), liver | dose not given, high dose, unit not given | relative to: AAV8-TBG-Null ethanol group | mRNA level | 0.97 and 0.74 and 0.9 and 0.81 and 1.16 |
| Oc1cc(Br)cc(Br)c1Oc1ccc(Br)cc1Br |  | glucuronidation | human liver microsomes |  |  | Vmax/Km | 83.3 ± 24.4 µL/min/mg |
| N=C(N)NCCC[C@H](NC(=O)CCCCCNC(=O)[C@H](CCCNC(=N)N)NC(=O)[C@H](CCCNC(=N)N)NC(=O)CCCCCNC(=O)[C@H](CCCNC(=N)N)NC(=O)[C@H](CCCNC(=N)N)NC(=O)CCCCCNC(=O)[C@H](CCCNC(=N)N)NC(=O)[C@H](CCCNC(=N)N)NC(=O)CCCCCNC(=O)[C@@H](N)CCCNC(=N)N)C(=O)NCCCCCC(=O)NCCC(=O)O |  | broth microdilution | ATCC 27853 resistant strain, Mueller-Hinton broth |  |  | MIC | 192 µM (≈ 366 µg/mL) |
| NCC(O)C1CCCCCCC1 (centres unmarked) | Plasmodium falciparum |  | Dd2 |  |  | IC50 | 10 µM |
| CCCCC/C=C\C/C=C\C/C=C\Cc1ccccc1CCCC(=O)N[C@H](C)CO |  | mechanical hypersensitivity, electronic von Frey | mouse, CFA inflammatory pain model, contralateral non-inflamed paw | ip, 1 mg/kg | relative to: vehicle | paw withdrawal threshold | no effect |
| C=CCc1ccccc1OCC(O)CNC(C)C (centres unmarked) | Plasmodium falciparum |  | 7G8 |  |  | IC50 | 3.16 µM |
| CC[C@H](C)[C@H](NC(=O)[C@H](CCCNC(=N)N)NC(=O)[C@H](CO)NC(=O)[C@H](Cc1ccc(O)cc1)NC(=O)[C@@H](NC(=O)[C@@H](NC(=O)[C@H](C)NC(=O)CNC(=O)[C@H](CCCCN)NC(=O)[C@@H](N)CCCCN)C(C)C)[C@@H](C)O)C(=O)N[C@@H](CO)C(=O)NCC(=O)N[C@@H](CCC(N)=O)C(=O)N[C@@H](Cc1ccc(O)cc1)C(=O)N[C@@H](CCCCN)C(=O)O |  | broth microdilution | 29213, Mueller-Hinton broth | 16 to 18 h, 37 °C |  | MIC | > 96 µM |
| CN1CCN(S(=O)(=O)c2cc([N+](=O)[O-])ccc2N(CCOS(C)(=O)=O)CCOS(C)(=O)=O)CC1 |  |  | NSG mice, sample CJ PDX | intraperitoneal, 25 mg/kg weekly x3 | relative to: treated over vehicle | EFS ratio (T/C) | > 10.8 |
| c1csc(-c2ccc(-c3cccs3)s2)c1 |  |  | C57BL/6J mouse, diet-induced obese | intraperitoneal, 5 mg/kg daily, 336 h |  | body weight | 50.3 ± 6.79 g |

Some of these lines once more:
| Structure (SMILES) | tested on | assay | test system | conditions | how to read | endpoint | value |
| --- | --- | --- | --- | --- | --- | --- | --- |
| c1csc(-c2ccc(-c3cccs3)s2)c1 |  |  | C57BL/6J mouse, diet-induced obese | intraperitoneal, 5 mg/kg daily, 336 h |  | body weight | 50.3 ± 6.79 g |
| Cc1nc(Nc2ccc(CC(=O)O)cc2)nc(Nc2ccc(F)c(C(F)(F)F)c2)c1C |  |  | C57BL/6J mice, high-fat diet, liver | intraperitoneal, 0.3 mg/kg daily, 60% fat diet 12 weeks, dosed last four | relative to: vehicle | triglyceride content | decreased |
| NCC(O)C1CCCCCCC1 (centres unmarked) | Plasmodium falciparum |  | Dd2 |  |  | IC50 | 10 µM |
| C=CCNc1c(O)cc2c(O)c1C[C@@H](C)C[C@H](OC)[C@H](O)[C@@H](C)/C=C(\C)[C@H](OC(N)=O)[C@@H](OC)/C=C\C=C(/C)C(=O)N2 |  |  | GIST patients | dose not given |  | median time to tumour progression | 12 weeks |
